Published values from different studies.
Every numbered part comes from another study and shows a few of its results, in no order. Values joined by “and” are separate records of one study, mostly repeats; a detail may differ.
UniProt P11229, sequence (whole entry, looked up): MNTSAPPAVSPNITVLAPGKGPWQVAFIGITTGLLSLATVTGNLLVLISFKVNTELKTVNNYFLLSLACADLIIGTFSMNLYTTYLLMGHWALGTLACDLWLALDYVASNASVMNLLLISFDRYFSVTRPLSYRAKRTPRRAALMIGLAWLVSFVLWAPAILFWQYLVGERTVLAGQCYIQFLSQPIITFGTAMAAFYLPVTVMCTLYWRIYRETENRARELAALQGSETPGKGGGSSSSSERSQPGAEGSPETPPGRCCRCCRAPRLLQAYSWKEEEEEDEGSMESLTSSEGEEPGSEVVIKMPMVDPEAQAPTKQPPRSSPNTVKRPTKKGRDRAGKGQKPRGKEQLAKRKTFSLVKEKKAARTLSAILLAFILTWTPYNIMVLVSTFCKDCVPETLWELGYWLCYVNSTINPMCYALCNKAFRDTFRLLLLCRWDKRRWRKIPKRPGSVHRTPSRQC
UniProt P47898, sequence (whole entry, looked up): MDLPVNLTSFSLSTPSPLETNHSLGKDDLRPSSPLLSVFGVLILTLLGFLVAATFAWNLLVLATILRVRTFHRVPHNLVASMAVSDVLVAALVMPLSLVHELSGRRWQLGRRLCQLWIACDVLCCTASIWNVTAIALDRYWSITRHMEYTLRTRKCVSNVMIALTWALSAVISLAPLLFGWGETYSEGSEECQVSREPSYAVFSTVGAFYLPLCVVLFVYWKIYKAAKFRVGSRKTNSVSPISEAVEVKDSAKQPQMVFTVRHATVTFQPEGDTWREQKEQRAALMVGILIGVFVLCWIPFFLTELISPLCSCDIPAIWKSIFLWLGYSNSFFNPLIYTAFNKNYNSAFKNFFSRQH

Study 1
Target: Serine/threonine-protein kinase PAK 2 (PAK2, Homo sapiens, UniProt Q13177)
UniProt Q13177, sequence (whole entry, looked up): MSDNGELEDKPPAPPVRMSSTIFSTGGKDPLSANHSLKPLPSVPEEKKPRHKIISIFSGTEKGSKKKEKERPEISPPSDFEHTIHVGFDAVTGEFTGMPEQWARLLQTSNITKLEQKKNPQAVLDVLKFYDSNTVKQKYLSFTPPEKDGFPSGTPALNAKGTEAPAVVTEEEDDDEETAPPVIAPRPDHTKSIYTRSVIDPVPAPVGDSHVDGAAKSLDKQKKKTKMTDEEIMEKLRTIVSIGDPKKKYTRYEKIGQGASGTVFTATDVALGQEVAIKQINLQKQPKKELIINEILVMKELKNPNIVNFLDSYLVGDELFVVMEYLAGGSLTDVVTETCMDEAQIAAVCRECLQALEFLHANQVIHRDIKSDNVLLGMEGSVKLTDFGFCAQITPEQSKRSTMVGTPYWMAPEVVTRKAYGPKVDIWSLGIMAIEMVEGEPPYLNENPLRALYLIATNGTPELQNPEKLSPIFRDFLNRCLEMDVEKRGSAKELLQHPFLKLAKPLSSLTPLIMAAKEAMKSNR
Effect on: enzyme activity
Mode: inhibitor
Concentration: 0.5 µM
Baseline: control
SMILES | remaining activity
c1cc(-c2cnn3cc(-c4ccc(OCCN5CCCCC5)cc4)cnc23)ccn1 | 105%
N#CC(c1ccnc(NCCc2cccnc2)n1)c1nc2ccccc2s1 (stereo not shown) | 103%
O=C(O)/C=C/c1cc(Br)c(Br)c(Br)c1Br | 83.2%
O=c1c(-c2ccc(F)cc2)c(-c2ccncc2)[nH]n1-c1ccc(Cl)cc1 | 102%
COc1cc2c(N3CCN(C(=O)Nc4ccc(OC(C)C)cc4)CC3)ncnc2cc1OCCCN1CCCCC1 | 112%
O=C1NC(=O)/C(=C/c2ccc3c(c2)OC(F)(F)O3)S1 | 99.9%
O=Nc1c(-c2c(O)[nH]c3ccccc23)[nH]c2ccccc12 | 96.7%
COc1cc2c(Nc3ccc(Br)cc3F)ncnc2cc1OCC1CCN(C)CC1 | 103%
FC(F)(F)c1ccc(/C=C/c2nc(COc3ccc(CCCCn4ccnn4)cc3)co2)cc1 | 113%
CC(C)N(CCC(=O)c1ccc2ccccc2c1)Cc1ccccc1 | 107%
CCCCc1c(-c2ccc(O)cc2)[nH]c2nccnc12 | 84.5%
CC(C)n1cnc2c(Nc3cccc(Cl)c3)nc(NCCO)nc21 | 106%
CNc1cc2c(Nc3cccc(Br)c3)ncnc2cn1 | 92.7%
CCN(CC)CCCCN1c2ccccc2Oc2ccc(Cl)cc21 | 98.6%
N#C/C(=C(/N)SC1C=CC=CC1)c1cccc(C(O)c2ccncc2)c1 (stereo not shown) | 103%
O=C(c1ccccc1)c1ccc(N2CCOCC2)cc1O | 103%
O=C1c2ccccc2-c2nc3nnnn3nc21 | 96.2%
CC(C)(C)c1nc2c3cc[nH]c(=O)c3c3cc(F)ccc3c2[nH]1 | 88.8%
NC(=O)c1cccc(-c2cc(Nc3ccc(OC(F)(F)F)cc3)ncn2)c1 | 106%
NC(=O)c1ccc(-c2nc(-c3ccc4c(c3)OCCO4)c(-c3ccccn3)[nH]2)cc1 | 102%
C[C@@H](N)[C@H]1CC[C@H](C(=O)Nc2ccncc2)CC1 | 96.6%
Nc1nc(Nc2ccc(S(N)(=O)=O)cc2)nn1C(=S)Nc1c(F)cccc1F | 26.4%

Study 2
SMILES: CN(C(=O)c1ccn2ncc(-c3ccc(C(N)=O)cc3)c2c1)c1ccc(C#N)cn1
Organism: Cryptosporidium parvum
Technique: time-kill
Cell line: HCT-8
Strain: nanoluciferase-expressing
Baseline: DMSO control
conditions | luminescence remaining
20 µM, 24 h | 38.1% and 41.2%
6.667 µM, 48 h | 12.7% and 9.37%
0.00102 µM, 48 h | 71.5% and 110%
20 µM, 0 h | 103% and 98% and 97.4% and 91.4% and 91.2% and 90.1% and 99.4% and 90.3%
0.00305 µM, 72 h | 75.1% and 93.8%
0.7407 µM, 4 h | 94.9% and 89%
20 µM, 72 h | 10.8% and 11.2%
0.2469 µM, 72 h | 9.97% and 10.3%
0.2469 µM, 24 h | 42% and 35.8%
2.222 µM, 0 h | 90.3% and 103% and 98% and 99.4% and 90.1% and 97.4% and 91.2% and 91.4%
0.2469 µM, 0 h | 103% and 91.2% and 91.4% and 90.3% and 99.4% and 97.4% and 90.1% and 98%
2.222 µM, 24 h | 45.7% and 35.3%

Study 3
Host: mouse
Sample: microsomes or S9
Concentration: 2 µM
Time: 0.5 h
SMILES | remaining compound
NC(=O)CN1C(=O)/C(=c2\sc3nc(=O)c(-c4ccccc4)nn3c2=O)c2ccccc21 | > 99%
Cc1nnc(SCc2nc(N)nc(Nc3ccc4ccccc4c3)n2)s1 | 0.0435%
CCC(NC(=O)NCCc1cnn(C)c1C)c1c(C)noc1C (stereo not shown) | 64%
COCCOc1cc(=O)n2c(c1C(=O)Nc1cccc(OC)c1)CCOCC2 | 36.4%
CCOC(=O)Cc1c(C)nc2cc(-c3ccc(C)cc3)nn2c1O | 28%
Oc1cc(O)c2sc3nc(-c4ccccc4Cl)ccc3c2n1 | > 99%
Oc1c(-c2nc(-c3cccs3)no2)cnc2ccccc12 | 1.07%
CS(=O)(=O)N[C@@H]1[C@@H](NC(=O)C2=NNC(=O)CC2)[C@H]2CCO[C@H]21 | 98.5%
Nc1ncnc2c1c(-c1cccc(OCc3ccccc3)c1)cn2C1CC(CN2CCCC2)C1 (stereo in doubt) | 6.97%

Further values, each from its own experiment
Structure (SMILES) | target or system | assay | conditions | endpoint | value
CO[C@H]1CC[C@H](CNc2ccc(S(=O)(=O)NC(=O)c3ccc(N4CCN(CC5=C(c6ccc(Cl)cc6)CC(C)(C)CC5)CC4)cc3Oc3cnc4[nH]ccc4c3)cc2[N+](=O)[O-])CC1 | 5-hydroxytryptamine receptor 5A (HTR5A, Homo sapiens, UniProt P47898) | ligand displacement | 10 µM | inhibition | -24.9%
CN1CCN(C(=O)C(C)(C)c2ccc(C(=O)Nc3cn4cc(-c5cc(C(C)(C)C)cc(C(C)(C)C)c5)ccc4n3)cc2)CC1 | Muscarinic acetylcholine receptor M1 (CHRM1, Homo sapiens, UniProt P11229) | binding |  | Ki | 1340 nM
Cn1cncc1[C@@](O)(COc1ccc(C#N)cc1-c1ccc(OC(F)(F)F)cc1)c1ccc(C#N)cc1 | HEK293T | high-content imaging | 10 µM, 12 h | cells with fragmented nuclei | 3.98% and 12.4%

Some of these lines once more (study 1):
SMILES | remaining activity
O=C1c2ccccc2-c2nc3nnnn3nc21 | 96.2%
CC(C)(C)c1nc2c3cc[nH]c(=O)c3c3cc(F)ccc3c2[nH]1 | 88.8%
NC(=O)c1cccc(-c2cc(Nc3ccc(OC(F)(F)F)cc3)ncn2)c1 | 106%
NC(=O)c1ccc(-c2nc(-c3ccc4c(c3)OCCO4)c(-c3ccccn3)[nH]2)cc1 | 102%
C[C@@H](N)[C@H]1CC[C@H](C(=O)Nc2ccncc2)CC1 | 96.6%
Nc1nc(Nc2ccc(S(N)(=O)=O)cc2)nn1C(=S)Nc1c(F)cccc1F | 26.4%
